Measured values pooled from the literature.
Parts stem from different laboratories: compare values within a part only.

Sample 1 — technique: RNA Bind-n-Seq; molecule type: RNA; medium: in vitro; concentration: 200 nM; setting: whole 134-nt RNA, ends assumed; with: 150 mM KCl; baseline: input library; reading: higher = stronger binding
Target: Ras GTPase-activating protein-binding protein 1, full length (G3BP1, Homo sapiens, UniProt Q13283)
Sequence of UniProt Q13283 (whole entry, looked up): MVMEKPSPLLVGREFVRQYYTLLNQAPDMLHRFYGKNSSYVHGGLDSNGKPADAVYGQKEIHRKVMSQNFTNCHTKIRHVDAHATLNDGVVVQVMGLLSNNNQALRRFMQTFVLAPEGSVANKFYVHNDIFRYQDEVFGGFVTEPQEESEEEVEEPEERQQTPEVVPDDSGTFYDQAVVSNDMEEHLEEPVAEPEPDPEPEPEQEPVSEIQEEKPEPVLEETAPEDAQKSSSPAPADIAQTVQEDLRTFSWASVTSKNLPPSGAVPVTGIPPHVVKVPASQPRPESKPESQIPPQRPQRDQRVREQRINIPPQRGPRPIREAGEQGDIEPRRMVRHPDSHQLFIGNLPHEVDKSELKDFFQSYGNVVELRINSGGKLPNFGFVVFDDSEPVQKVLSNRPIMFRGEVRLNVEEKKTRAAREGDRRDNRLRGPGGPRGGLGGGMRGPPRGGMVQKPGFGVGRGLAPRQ
Strand | log2 enrichment
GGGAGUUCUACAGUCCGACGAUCGGGGAGGUGGAUUUUGUUUAUUUUUUUAGCUCAUUUCCAGGGGUGGGAAUUUUUUUUUAAUAUGUGUCAUGAAUAAAGUUGUUUUUGAAAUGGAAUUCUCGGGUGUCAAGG | 0.0497
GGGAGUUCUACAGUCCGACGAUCCUCAAGUCCUGUGCUACACAUCGUAUGUACCGAAUCGGUUUUUUUGGUGGAGGAAAGUAUUAUGUUACGCCGUUCGGAUCUGCACUUCCAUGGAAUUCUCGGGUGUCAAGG | -0.339
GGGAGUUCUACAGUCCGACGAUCGUCCUGUGCUACACAUCGUAUGUACCGAAUCGGGUUUUUGGGAAAAAAAGGGAAAGGGAAAGUAUUAUGUUACGCCGUUCGGAUCUGCACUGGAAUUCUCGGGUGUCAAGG | -0.596
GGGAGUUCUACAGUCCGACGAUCAAGUCCUGUGCUACACAUCGUAUGUACCGAAUCGGAAAGGUUUUUUUGGUUUUUGGAAAGUAUUAUGUUACGCCGUUCGGAUCUGCACUUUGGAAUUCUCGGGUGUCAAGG | -1.61
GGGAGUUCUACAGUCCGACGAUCGCAGGAAGUAAAAACAAAUGGAAAUGCUUCGGAUAGUGGCAGGGGUGGGGGUUGCUAAGGAAAGGGUGGGAUGGGAGUGGGUACAGAGUUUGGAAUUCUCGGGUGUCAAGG | 1.26
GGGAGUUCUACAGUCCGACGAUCACCAUGCAGGUGGGCAUCUUUGGGAAGUGGGGCAAGGGGGGGAUAGGGAGGGGGGUAACACUUUGGGAACAGGUGGUCCCAGGAAAUUUCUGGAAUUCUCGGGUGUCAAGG | 1.17
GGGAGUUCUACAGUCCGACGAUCUCAAGUCCUGUGCUACACAUCGUAUGUACCGAAUCGGAAAAAGGAGGUUUUUGGAAAGUAUUAUGUUACGCCGUUCGGAUCUGCACUUCCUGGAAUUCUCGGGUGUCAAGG | -0.764
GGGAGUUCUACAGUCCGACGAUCCUGUGCUACACAUCGUAUGUACCGAAUCGGGAAAAAAGGGGAAAAAAGGGGAAAAAAGGGGAAAGUAUUAUGUUACGCCGUUCGGAUCUGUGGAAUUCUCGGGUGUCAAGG | -0.486
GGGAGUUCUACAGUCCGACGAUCCAAGUCCUGUGCUACACAUCGUAUGUACCGAAUCGGGUUUGGGUUUUUGGGUGGGAAAGUAUUAUGUUACGCCGUUCGGAUCUGCACUUCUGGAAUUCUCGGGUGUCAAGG | 0.604
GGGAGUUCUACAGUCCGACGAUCUCCUCAAGUCCUGUGCUACACAUCGUAUGUACCGAAUCGGCGGGCGGCGGGGAAAGUAUUAUGUUACGCCGUUCGGAUCUGCACUUCCAGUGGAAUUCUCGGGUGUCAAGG | 0.178

Sample 2 — technique: RNA Bind-n-Seq; molecule type: RNA; medium: in vitro; concentration: not given; baseline: input RNA pool; reading: higher = stronger binding
Target: RING finger protein unkempt homolog, zinc fingers 1-6, GST-SBP tag (UNK, Homo sapiens, UniProt Q9C0B0, residues 30-357)
Sequence of UniProt Q9C0B0 (30-357, looked up): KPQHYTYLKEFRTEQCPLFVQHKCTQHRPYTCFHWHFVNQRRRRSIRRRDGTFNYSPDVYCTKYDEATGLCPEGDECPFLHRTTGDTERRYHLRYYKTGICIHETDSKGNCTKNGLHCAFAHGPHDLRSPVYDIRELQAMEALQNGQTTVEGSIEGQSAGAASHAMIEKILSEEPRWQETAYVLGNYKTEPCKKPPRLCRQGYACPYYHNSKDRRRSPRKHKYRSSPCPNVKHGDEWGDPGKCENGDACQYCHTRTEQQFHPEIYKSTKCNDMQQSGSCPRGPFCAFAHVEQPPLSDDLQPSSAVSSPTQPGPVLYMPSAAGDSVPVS
Setting: RNA with constant flanks, human and mouse sites, ends assumed
Strand | bound/input enrichment
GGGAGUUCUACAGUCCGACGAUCGAAAGUAUCACGUCUGCUGGAAGAGAUGAUCUAGAGAGCUUCCAGCUUGAGAUAAGUGGCUUUUUAAAAGAAAUGGCAUGUCCAUAUUCUGUACUCAUAUCAGGAGAUAUUAAAGAUCGUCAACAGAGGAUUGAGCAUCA | 0.735 ratio
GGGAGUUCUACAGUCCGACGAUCAUUUGGUCUCUGUCCCCCCCCGGGGGGGGCGGGGGGGGCGAGCCCAGCCCCUCCGGUGCGACUAGGAAUGAAGCUGGACAGUGCCGAAGAGAAGUCGGGGGUCGGCUGCUCCCUGCCUGCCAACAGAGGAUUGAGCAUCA | 0.168 ratio
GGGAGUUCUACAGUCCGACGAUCGCGACCCCCAGCCUGCUGGGCAGGUAAACCAGCCAAAACUAUUCCCUGAAUGAAAACACCUUUUUUUAAAGUUGCAUAUAUACACAAGAAAAAACCGAAAUGCUUUUUAUUUUGCCUGAACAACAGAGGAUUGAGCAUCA | 0.253 ratio
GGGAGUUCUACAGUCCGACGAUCGCCACUCCAUUCAGUUCCAAGUCCAGUACCAAGCCUGCAGCCGGGGGCACAGCACCCCUGCCUCCUUGGAAGUCCCCUUCCAGCUCCCAGCCUCUGCCCCAGGUUCCGGCUCCGGCUCAGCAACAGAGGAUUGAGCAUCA | 0.279 ratio
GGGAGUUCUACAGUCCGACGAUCGCCAUGGACACAGAAUUUCCAGGUGUUGUGGUGCGACCAAUUGGUGAAUUUCGUAGUUCCAUAGAUUACCAAUAUCAGCUUCUGCGGUGCAAUGUUGACCUUUUAAAAAUUAUCCAGCUGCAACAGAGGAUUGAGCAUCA | 0.685 ratio
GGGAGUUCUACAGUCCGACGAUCCAAGAUCACCUGUCUCCUGAAGCAGAAGAAAUCACUAUGAUUAGUAUUCAGCUUGCUGCUAGGUUCCUUUUUACUACAGGAUUUCACACAAAGAAAAUAGUCCGAGGAUCUGCCAGUGAUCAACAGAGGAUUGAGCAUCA | 0.348 ratio
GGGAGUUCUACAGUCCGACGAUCUUUUUUUUAAUUUUUUUUAAAAUUUCAUAUCUUUUCAUUCCACUGUGUAAAGUGCUAGGAAAUUUCCAAUUUGAAAUUUUGCUUUUUCUGGCAUUGGCAAAAAACCAGUAGAAGUGAAUUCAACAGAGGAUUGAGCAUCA | 5.42 ratio
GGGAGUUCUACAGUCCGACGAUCAGCUCUCCGUGCAUUCACUACUUCACUGGAACCCCUGAUCCUUCCAGGUCCAUAUUCAAGCCUUUCAUCUUUGUUGAUGACGUAAAACUUGUCCCCAAAACACAGUCUCCCUGUUUUGGGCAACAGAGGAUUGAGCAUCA | 0.404 ratio

Sample 3 — technique: RNA Bind-n-Seq; molecule type: RNA; medium: in vitro; concentration: 365 nM; baseline: no-protein control; reading: higher = stronger binding
Target: RNA binding protein fox-1 homolog 2, RRM domain, GST-SBP tag (RBFOX2, Homo sapiens, UniProt O43251-10, residues 100-194)
Setting: natural RNA segment, single round, ends assumed
Construct (chain): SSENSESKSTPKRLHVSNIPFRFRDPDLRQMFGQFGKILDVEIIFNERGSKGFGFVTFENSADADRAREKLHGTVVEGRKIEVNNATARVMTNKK
Strand | RBNS enrichment (R)
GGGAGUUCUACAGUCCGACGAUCGUGAAUGUUCAUGUAUGACCUACUUGUAAUUAACUUGAGUUGUAGUCCACAGCCUCAGGACAAAUGUCGUUGAGGUUACAGAGUAAGAAAUGAUGGCAAAACGUCAAACUUGGAAUUCUCGGGUGCCAA | 0.415
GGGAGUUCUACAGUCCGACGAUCUAAAUUAAGAAGAUAGAACAAAGAGAAAGACAUUAAUGUUACCUAAGAAACACAUUUAACAUCCGAAGAAGCAAUGCUGUCCUCACUUGAUGUUUCUCUUCUCAACCCAGUGGAAUUCUCGGGUGCCAA | 0.303
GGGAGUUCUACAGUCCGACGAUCGUCGUCUGCCAGAGCAGGGUCUGGGAGGGUCCAUGCAGUUCCCGCUGGUGUGGAGGGAAAUGCCCUGGUCUGGCCUCCGAGCCCCCAGGUCCACCGUCUCCCCUCCCCUCUGGAAUUCUCGGGUGCCAA | 0.391
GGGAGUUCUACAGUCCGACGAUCUUAAUGUUUAUCCAGCUGCCGUAGUUUGAAACAUUCUGGGCUGGGAGAAGAGGGACCCCGGGGUUUCUAAUUUCAACCCCAAAUGACAUGUUUAUUUGCACCUGAUGCUCUGGAAUUCUCGGGUGCCAA | 1.63
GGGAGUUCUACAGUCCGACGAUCAGUGUCCACACCUGCAUGUAGGGAUUCGGUGUCCUGCUUAAUGCCUUCCCCUCUCGGGCUUCAUUCCACCCAGCUGUCAGCUGACCUGCGGGUGAAGGGCUCAGCCUUCUUGGAAUUCUCGGGUGCCAA | 9.41
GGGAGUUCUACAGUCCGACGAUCGAAAAUAUGUUUUUGCUGCUUUAUAUAAAAGUGAUUUUUAAGUUAUUUUAAAGAUCUAGCUUCCCUAUUUGAUUAAGAUUGCCAUCUUGCUUUUGGGCAGAAAAAAGUAGUGGAAUUCUCGGGUGCCAA | 0.514
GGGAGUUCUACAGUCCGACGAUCGACCAUUUACUUGAUACAAAUUGUACCUUUCUGUUUUUCUAGUCAGGUUGGUGGCCUGCAGGGACGCGUACUUUGCCACCCGACCAGAGGUUCCUCGAAGAUAUUCCCAAUGGAAUUCUCGGGUGCCAA | 0.387
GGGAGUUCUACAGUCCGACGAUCAAAAAGCAUGUAUGUUUUUUACUGUUUGUAAUAAGUACUUUCGUUAAUCUUGCUGCUUAUGUGCCAAUUUAGUGGAAAAAAACAACCCUUGCUGAAAAAUUCCCUCUUUCUGGAAUUCUCGGGUGCCAA | 1.19
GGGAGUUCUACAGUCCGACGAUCGAGCAGUCCUUCAAUCUCAGAACCCCAGGAGGCCCCACAGGAGUUGCCCUCCUCCUUCAGCCUGCCCCUGCCUUGGGCUGCCCUUCCCCUGGUGUACUCCUGAGGUGUCUUGGAAUUCUCGGGUGCCAA | 0.725

Sample 4 — technique: protein-binding microarray; molecule type: double-stranded DNA, one strand shown; medium: in vitro; concentration: 2200 nM top; setting: 60-bp whole probe; with: salmon DNA 0.4 mg/ml; baseline: random background probes; reading: higher = stronger binding; shared flanks, not repeated: GCCTAGCAC … GTCTTGATTCGCTTGACGCTGCTG
Target: Interferon regulatory factor 7, full length, phosphomimetic (IRF7, Homo sapiens, UniProt Q92985, residues 1-503, S471D/S472D/S475D/S476D/S477D/S483D/S484D/S487D)
Sequence of UniProt Q92985 (whole entry, unmodified, looked up): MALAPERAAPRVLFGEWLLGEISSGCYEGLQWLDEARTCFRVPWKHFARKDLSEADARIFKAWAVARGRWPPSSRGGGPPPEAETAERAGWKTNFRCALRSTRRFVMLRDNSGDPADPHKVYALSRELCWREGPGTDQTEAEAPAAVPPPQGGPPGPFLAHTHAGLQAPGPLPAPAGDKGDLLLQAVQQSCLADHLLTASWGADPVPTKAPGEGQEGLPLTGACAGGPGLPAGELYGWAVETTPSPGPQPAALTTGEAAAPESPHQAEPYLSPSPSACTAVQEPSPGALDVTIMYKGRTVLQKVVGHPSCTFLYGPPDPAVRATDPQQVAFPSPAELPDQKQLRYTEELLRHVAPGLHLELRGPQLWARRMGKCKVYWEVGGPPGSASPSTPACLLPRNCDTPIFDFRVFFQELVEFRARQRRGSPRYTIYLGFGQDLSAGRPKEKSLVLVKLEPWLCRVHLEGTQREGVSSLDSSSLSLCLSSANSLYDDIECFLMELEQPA
Strand | fitted relative affinity
ATCTTTTTCCTAATTGAACCGTGCTAG | 1.67 z-score
GAAGGTCTCCTACTGCTGACGTGCTAG | 0.154 z-score
TCATTTTTAGATATCTTACTGTGCTAG | 1.18 z-score
TTAGGACTGGGCACTGGGTTAGTGCTA | -1.14 z-score
TTAGGTTTTGGGTATCGGTTAGTGCTA | 1.69 z-score
TTAGGACTGCTTACCCTTTAGTGCTAG | 0.606 z-score
TCAACTCTTGCTTTTTAACTGTGCTAG | 0.954 z-score
GACGGTTTGCTTATCCTGACGTGCTAG | 1.61 z-score
GACGGGTTCGGTTTCGGGACGTGCTAG | 4.92 z-score
TTAGAACTGACTATCGATTAGTGCTAG | -0.146 z-score
GACGGTTTCGGTATCGGTACGTGCTAG | 7.61 z-score
GACGATCTCTGTTTCGAGACGTGCTAG | 2.2 z-score
TCAATTTTTAGGATGGGACTGTGCTAG | -0.195 z-score
GACGGTCTCTGTTTCGGGACGTGCTAG | 2.52 z-score
GACGGACTGCTTCCCCTGACGTGCTAG | 0.252 z-score
TTAGGACTGGGGACTGGGGTAGTGCTA | -0.728 z-score
TTAGTTATCCTTTTCCTTTAGTGCTAG | 2.7 z-score
CCCAGACTTGATTTTGGTCTGTGCTAG | 0.405 z-score
GACGGATTGGACACTGGGGACGTGCTA | -0.497 z-score
TTAGAACTTGGGACTGGATTAGTGCTA | -0.65 z-score
TCACCATTGGTCTTCACACTGTGCTAG | 1.33 z-score

A few entries again (sample 3):
Strand | RBNS enrichment (R)
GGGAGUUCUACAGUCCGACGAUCAGUGUCCACACCUGCAUGUAGGGAUUCGGUGUCCUGCUUAAUGCCUUCCCCUCUCGGGCUUCAUUCCACCCAGCUGUCAGCUGACCUGCGGGUGAAGGGCUCAGCCUUCUUGGAAUUCUCGGGUGCCAA | 9.41
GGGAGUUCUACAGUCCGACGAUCAAAAAGCAUGUAUGUUUUUUACUGUUUGUAAUAAGUACUUUCGUUAAUCUUGCUGCUUAUGUGCCAAUUUAGUGGAAAAAAACAACCCUUGCUGAAAAAUUCCCUCUUUCUGGAAUUCUCGGGUGCCAA | 1.19
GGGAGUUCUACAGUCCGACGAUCGACCAUUUACUUGAUACAAAUUGUACCUUUCUGUUUUUCUAGUCAGGUUGGUGGCCUGCAGGGACGCGUACUUUGCCACCCGACCAGAGGUUCCUCGAAGAUAUUCCCAAUGGAAUUCUCGGGUGCCAA | 0.387
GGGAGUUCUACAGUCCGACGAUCGAGCAGUCCUUCAAUCUCAGAACCCCAGGAGGCCCCACAGGAGUUGCCCUCCUCCUUCAGCCUGCCCCUGCCUUGGGCUGCCCUUCCCCUGGUGUACUCCUGAGGUGUCUUGGAAUUCUCGGGUGCCAA | 0.725
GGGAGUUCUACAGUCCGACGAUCGUGAAUGUUCAUGUAUGACCUACUUGUAAUUAACUUGAGUUGUAGUCCACAGCCUCAGGACAAAUGUCGUUGAGGUUACAGAGUAAGAAAUGAUGGCAAAACGUCAAACUUGGAAUUCUCGGGUGCCAA | 0.415
